Experimental data from different studies.
Protocols differ between the studies behind these lines. Numbers after ± are the reported error.

SMILES	target or system	assay	conditions	scale	quantity	value
O=C(/C=C/C=C/C=C/C1CCCCC1)NC1=C[C@@](O)(/C=C/C=C/C=C/C(=O)NC2=C(O)CCC2=O)[C@@H]2O[C@@H]2C1=O	NCI-H2030	cell growth, CellTiter-Glo	78 h	–	GI50	> 30000 nM
Cn1cnc2c(F)c(Nc3ccc(Br)cc3F)c(C(=O)NOCCO)cc21	A-375	–	10 µM, 72 h	–	viability	18%
O=C(O)CN(c1ccc(N(CC(=O)O)S(=O)(=O)c2cc3c(cc2Cl)OCCO3)c2ccccc12)S(=O)(=O)c1cc2c(cc1Cl)OCCO2	HepG2-C8 ARE-luciferase reporter cells	ARE reporter activation, luciferase reporter	10 µM, 24 h, 0.1% DMSO	baseline: vehicle control	fold induction	> 2
Cn1cc(Nc2nccc(-c3ccc4c(c3)CN(C3COC3)CC[C@H]4NC(=O)c3cn(C(C)(C)C)nn3)n2)cn1	mouse splenic B cells	measured: RhoGDI signalling	30 mg/kg, IgD-activated in vivo	baseline: vehicle, direction not given	pathway activation z-score	-2.36
C[C@H](N[C@@H](CCc1ccccc1)C(=O)O)C(=O)N1[C@H](C(=O)O)C[C@@H]2CCC[C@@H]21	Nedd8-cullin1 interaction	neddylation, AlphaScreen	100 µM	–	inhibition	28.8%
CC(C)=CCC[C@@]1(C)C(CC[C@H]2[C@]3(C)CC[C@H](O)C(C)(C)O[C@H]3CC[C@@]2(C)O)=C(C)CC[C@H]1O	KB-C2 (P-gp overexpressing)	drug efflux	10 µM, 60 min	–	intracellular [3H]-paclitaxel remaining	63.6%
CC(C)c1c2cc(-c3ccnc(NC4CCC(NC5CCOCC5)CC4)n3)ccc2nn1C (centres unmarked)	HD-MB03	cell growth	DMSO	–	IC50	153 nM
COC(=O)C1=C(C)NC(C)=C(C(=O)OCC(C)C)C1c1ccccc1[N+](=O)[O-] (centres unmarked)	Nedd8-cullin1 interaction	neddylation, AlphaScreen	100 µM	–	inhibition	36%
C#CCN(Cc1cnc2nc(N)nc(N)c2n1)c1ccc(C(=O)N2CCC(C(=O)OC)CC2)cc1	786-O	high-content imaging, measured: MitoTracker Red uptake	10 µM	–	mitochondrial toxicity	1.07 ± 11.1%
CCCN1CCCC[C@H]1C(=O)Nc1c(C)cccc1C	primary rat hippocampal/cortical neuron-glia cultures	–	1 µM, together with: 1 µM α-synuclein oligomers	–	reversal of trafficking deficit	20.3%
CC[C@]1(O)C[C@H]2CN(CCc3c([nH]c4ccccc34)[C@@](C(=O)OC)(c3cc4c(cc3OC)N(C=O)[C@H]3[C@@](O)(C(=O)OC)[C@H](OC(C)=O)[C@]5(CC)C=CCN6CC[C@]43[C@@H]65)C2)C1	HD-MB03	cell growth	168 h, single agent	–	IC50	10.4 nM
CC1(C)CCC(CN2CCN(c3ccc(C(=O)NS(=O)(=O)c4ccc(NCC5CCOCC5)c([N+](=O)[O-])c4)c(Oc4cnc5[nH]ccc5c4)c3)CC2)=C(c2ccc(Cl)cc2)C1	THP-1	annexin V/PI flow cytometry, measured: annexin V-/PI-	1.6 µM, 24 h	–	viable cells	94.9%
Cc1cc(Nc2ncc(Cl)c(Nc3ccccc3S(=O)(=O)C(C)C)n2)c(OC(C)C)cc1C1CCNCC1	CLB-BAR	phosphoproteomics LC-MS/MS, measured: BAI2 phosphorylation	200 nM, 60 min	baseline: untreated	log2 fold change	-1.54
C=Cc1c2[n-]c(c1C)/C=c1\[n-]/c(c(C)c1C=C)=C\c1[n-]c(c(CCC(=O)O)c1C)/C=c1\[n-]c(c(C)c1CCC(=O)O)=C2.[Sn+4]	SH-SY5Y	RNA-seq, measured: FLT1 mRNA	5 µM, 5 h	baseline: untreated cells	fold change	3.76
Cn1cc(-c2ccc(-c3cncc(Cl)c3N3CCC4(CCNC4=O)CC3)cc2)cn1	COLO 205	gene expression, microarray, measured: CLU mRNA	concentration not given, 2 h	baseline: untreated cells	log2 fold change	1.46
CCn1cc(-c2cc(Cn3ccoc3=N)cc3c2CCN([C@@H](C)c2cc(OC)ccn2)C3=O)c(C(F)(F)F)n1	HT115	cell growth, inhibitor	120 h	–	EC50	154 nM
Cc1ccc(CNC(=O)Cn2cc(CSc3nc4ccccc4[nH]3)nn2)cc1	MDA-MB-231	MTT	3.91 ppm	–	viability	51.1%
N#Cc1ccc(COC[C@H]2O[C@@H](n3c(NCc4ccc(Cl)c(Cl)c4)nc4c(N)ncnc43)[C@H](O)[C@@H]2O)cc1	HD-MB03	–	concentration not given, together with: ribociclib NG	baseline: ribociclib over DMSO	fold change in IC50	1.82
COc1cnc2cccc(N3CCc4c(cc(Cn5ccnc5C)cc4-c4cn(C)nc4C(F)(F)F)C3=O)c2c1	Toledo	cell growth	120 h	–	EC50	23.4 nM
Brc1c(Br)c(Br)c2n[nH]nc2c1Br	HD-MB03	–	–	baseline: DMSO	IC50	inactive
CC/C(=N\NC(=O)C(C)Nc1ccccc1)c1ccc(O)c(C)c1O (centres unmarked)	SK-OV-3	Western blot, measured: TAZ	10 µM, 1 h, 2D culture, unit not given	baseline: β-actin	protein level	1.41 ± 0.09
CCn1cc(-c2cc(Cn3ccnc3)cc3c2CCN([C@H](c2cc(OC)ccn2)C2CC2)C3=O)c(C(F)(F)F)n1	BICR56	cell growth	120 h	–	EC50	28100 nM
Cc1cccc(-c2[nH]c(CNc3ccccc3F)nc2-c2ccc3ncnn3c2)n1	MM1.S pomalidomide-resistant	XTT	1 µM	baseline: untreated	viability	77%

Repeated from above:
SMILES	target or system	assay	conditions	scale	quantity	value
Cc1cc(Nc2ncc(Cl)c(Nc3ccccc3S(=O)(=O)C(C)C)n2)c(OC(C)C)cc1C1CCNCC1	CLB-BAR	phosphoproteomics LC-MS/MS, measured: BAI2 phosphorylation	200 nM, 60 min	baseline: untreated	log2 fold change	-1.54
